Published values of several laboratories.
Compare with care: the assays were run in different laboratories. ± gives the spread as reported.
Sequence of UniProt P30989 (whole entry, looked up): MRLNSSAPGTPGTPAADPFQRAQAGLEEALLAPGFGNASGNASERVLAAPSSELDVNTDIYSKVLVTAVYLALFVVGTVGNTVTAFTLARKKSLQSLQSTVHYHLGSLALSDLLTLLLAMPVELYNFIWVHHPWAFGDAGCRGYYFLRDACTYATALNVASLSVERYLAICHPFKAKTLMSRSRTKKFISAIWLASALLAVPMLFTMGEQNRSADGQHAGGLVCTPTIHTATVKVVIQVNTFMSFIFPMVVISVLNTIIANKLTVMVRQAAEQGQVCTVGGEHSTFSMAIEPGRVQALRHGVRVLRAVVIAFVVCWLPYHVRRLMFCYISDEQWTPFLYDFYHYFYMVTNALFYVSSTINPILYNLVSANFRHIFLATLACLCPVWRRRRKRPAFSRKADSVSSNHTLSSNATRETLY
Sequence of UniProt Q9NZC7 (whole entry, looked up): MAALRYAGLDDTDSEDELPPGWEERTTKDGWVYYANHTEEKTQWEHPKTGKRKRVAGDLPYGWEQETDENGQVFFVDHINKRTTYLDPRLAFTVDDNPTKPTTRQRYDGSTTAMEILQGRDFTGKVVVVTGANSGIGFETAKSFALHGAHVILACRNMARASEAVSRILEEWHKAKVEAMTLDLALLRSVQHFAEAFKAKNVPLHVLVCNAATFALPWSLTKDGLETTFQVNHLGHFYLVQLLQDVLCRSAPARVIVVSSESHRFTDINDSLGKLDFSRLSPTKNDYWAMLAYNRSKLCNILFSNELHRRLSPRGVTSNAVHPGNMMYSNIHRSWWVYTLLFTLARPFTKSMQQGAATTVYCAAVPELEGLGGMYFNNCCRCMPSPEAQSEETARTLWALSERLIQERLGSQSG
Sequence of UniProt P45973 (whole entry, looked up): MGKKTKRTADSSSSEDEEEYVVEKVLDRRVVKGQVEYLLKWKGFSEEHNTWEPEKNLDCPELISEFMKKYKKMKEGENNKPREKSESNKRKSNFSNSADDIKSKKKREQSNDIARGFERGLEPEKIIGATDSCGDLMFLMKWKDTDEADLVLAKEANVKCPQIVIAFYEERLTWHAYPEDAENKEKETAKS
Sequence of UniProt P22455 (whole entry, looked up): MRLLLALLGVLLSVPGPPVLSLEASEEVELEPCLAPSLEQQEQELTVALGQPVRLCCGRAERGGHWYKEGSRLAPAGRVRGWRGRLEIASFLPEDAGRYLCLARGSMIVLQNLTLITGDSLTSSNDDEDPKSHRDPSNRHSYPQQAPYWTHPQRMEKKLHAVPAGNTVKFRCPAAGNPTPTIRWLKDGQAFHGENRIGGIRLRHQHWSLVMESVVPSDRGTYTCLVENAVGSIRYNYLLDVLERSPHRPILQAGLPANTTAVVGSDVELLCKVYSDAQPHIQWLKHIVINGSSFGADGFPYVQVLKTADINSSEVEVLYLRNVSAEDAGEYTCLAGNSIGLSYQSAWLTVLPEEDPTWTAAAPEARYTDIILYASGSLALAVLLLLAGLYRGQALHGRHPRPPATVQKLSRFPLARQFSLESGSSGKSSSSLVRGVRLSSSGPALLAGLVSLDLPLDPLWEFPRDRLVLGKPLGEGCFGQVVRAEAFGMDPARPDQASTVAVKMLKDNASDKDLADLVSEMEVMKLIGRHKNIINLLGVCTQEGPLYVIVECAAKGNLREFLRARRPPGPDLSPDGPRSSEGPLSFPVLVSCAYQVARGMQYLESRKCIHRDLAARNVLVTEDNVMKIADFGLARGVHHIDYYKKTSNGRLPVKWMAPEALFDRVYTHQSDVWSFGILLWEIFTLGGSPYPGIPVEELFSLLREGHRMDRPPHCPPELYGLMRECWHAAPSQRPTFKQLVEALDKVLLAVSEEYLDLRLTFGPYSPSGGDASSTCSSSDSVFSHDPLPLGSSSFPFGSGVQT
Sequence of UniProt Q07741 (whole entry, looked up): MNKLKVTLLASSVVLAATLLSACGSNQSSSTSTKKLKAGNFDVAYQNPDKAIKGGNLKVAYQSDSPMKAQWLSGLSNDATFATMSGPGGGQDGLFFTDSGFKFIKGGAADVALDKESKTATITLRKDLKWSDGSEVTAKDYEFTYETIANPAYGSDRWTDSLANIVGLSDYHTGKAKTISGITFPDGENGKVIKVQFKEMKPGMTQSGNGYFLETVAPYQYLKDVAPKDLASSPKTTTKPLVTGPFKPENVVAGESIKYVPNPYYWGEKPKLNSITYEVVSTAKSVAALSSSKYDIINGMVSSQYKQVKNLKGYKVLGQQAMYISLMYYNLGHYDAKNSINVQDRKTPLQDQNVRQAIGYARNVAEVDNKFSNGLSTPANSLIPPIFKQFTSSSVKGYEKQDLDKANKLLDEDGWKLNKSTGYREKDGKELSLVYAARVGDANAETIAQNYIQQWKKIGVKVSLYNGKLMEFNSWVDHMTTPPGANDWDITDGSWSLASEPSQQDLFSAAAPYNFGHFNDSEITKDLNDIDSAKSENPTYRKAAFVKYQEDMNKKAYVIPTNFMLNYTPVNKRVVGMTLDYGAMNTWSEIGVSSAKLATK
Sequence of UniProt P26718 (whole entry, looked up): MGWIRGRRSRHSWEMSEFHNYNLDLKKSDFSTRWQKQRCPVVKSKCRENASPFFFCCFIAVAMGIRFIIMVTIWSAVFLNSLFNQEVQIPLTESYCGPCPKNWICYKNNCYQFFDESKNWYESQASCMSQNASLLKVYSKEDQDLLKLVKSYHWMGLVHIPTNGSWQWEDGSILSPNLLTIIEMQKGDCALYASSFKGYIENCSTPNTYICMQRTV
Sequence of UniProt P63104 (whole entry, looked up): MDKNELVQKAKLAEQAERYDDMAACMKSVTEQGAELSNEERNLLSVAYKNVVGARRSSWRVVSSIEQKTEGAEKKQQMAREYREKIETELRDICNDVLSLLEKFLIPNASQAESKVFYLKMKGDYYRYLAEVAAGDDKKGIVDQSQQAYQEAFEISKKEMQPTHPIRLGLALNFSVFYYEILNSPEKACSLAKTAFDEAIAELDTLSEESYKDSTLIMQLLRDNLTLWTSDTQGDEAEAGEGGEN
Sequence of UniProt Q9UEF7 (whole entry, looked up): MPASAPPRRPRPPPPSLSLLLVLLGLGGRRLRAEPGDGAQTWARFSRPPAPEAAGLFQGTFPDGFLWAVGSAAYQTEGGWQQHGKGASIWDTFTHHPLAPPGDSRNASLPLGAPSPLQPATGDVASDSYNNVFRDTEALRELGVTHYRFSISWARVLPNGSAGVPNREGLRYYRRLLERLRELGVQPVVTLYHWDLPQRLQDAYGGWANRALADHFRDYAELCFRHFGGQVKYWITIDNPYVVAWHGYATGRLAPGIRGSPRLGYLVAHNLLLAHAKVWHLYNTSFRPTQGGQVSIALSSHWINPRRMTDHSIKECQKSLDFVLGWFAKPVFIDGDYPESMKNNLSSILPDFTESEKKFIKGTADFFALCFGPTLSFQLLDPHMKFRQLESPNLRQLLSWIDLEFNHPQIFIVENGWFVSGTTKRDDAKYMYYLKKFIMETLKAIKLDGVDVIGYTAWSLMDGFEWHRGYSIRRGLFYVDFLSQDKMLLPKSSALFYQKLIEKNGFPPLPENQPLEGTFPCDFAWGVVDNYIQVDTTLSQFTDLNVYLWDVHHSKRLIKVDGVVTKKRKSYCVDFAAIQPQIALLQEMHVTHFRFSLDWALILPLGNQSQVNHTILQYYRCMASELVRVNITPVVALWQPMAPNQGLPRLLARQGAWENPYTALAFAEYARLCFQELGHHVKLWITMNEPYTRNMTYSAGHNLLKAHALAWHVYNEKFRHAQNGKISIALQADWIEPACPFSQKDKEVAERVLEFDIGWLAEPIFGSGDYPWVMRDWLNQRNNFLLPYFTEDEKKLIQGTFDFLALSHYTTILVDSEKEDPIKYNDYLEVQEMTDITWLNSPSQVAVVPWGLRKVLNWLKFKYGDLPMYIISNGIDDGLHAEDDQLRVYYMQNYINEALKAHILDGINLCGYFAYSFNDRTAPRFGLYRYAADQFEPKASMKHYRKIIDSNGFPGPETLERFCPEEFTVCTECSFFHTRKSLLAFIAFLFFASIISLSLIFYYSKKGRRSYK
Sequence of UniProt Q767F1 (whole entry, unmodified, looked up): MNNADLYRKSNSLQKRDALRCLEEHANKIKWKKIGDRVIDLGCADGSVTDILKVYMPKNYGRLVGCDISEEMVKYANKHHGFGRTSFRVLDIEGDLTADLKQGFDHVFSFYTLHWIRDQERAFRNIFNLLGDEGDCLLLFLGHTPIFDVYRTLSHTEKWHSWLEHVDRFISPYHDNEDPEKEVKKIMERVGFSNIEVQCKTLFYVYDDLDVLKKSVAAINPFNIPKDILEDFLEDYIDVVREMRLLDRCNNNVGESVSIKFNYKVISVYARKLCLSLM
Sequence of UniProt P53350 (whole entry, looked up): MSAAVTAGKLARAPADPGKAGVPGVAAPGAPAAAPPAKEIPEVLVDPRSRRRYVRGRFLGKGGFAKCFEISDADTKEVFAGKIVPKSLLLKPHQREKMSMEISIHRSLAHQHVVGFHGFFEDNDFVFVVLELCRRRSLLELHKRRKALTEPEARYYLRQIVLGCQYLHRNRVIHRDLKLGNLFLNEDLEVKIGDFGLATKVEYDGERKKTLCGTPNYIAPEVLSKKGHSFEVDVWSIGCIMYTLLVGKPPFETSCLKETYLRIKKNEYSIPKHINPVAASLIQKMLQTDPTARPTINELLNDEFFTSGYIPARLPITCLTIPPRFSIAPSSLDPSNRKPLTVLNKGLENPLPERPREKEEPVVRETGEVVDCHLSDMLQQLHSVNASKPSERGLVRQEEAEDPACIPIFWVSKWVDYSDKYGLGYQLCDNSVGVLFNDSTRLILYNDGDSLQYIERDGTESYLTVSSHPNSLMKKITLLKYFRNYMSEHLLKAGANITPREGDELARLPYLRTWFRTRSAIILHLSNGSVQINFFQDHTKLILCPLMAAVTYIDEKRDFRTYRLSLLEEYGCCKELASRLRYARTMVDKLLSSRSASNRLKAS

Structure (SMILES)	target	assay	test system	conditions	Kd
CC[C@H](C)[C@H](NC(=O)[C@H](CCCNC(=N)N)NC(=O)[C@H](CCCCN)NC(=O)[C@@H](NC(=O)[C@H](C)NC(=O)[C@H](CCCNC(=N)N)NC(=O)[C@H](CCC(N)=O)NC(=O)[C@H](CO)NC(=O)[C@H](CCCCN)NC(=O)[C@H](CC(N)=O)NC(=O)[C@@H](N)CCCNC(=N)N)[C@@H](C)O)C(=O)N[C@@H](CO)C(=O)N[C@@H](Cc1c[nH]cn1)C(=O)N[C@@H](CCSC)C(=O)N1CCC[C@H]1C(=O)N[C@@H](CO)C(=O)N[C@@H](CCCNC(=N)N)C(=O)N1CCC[C@H]1C(=O)N[C@@H](CCC(=O)O)C(=O)N[C@@H](CC(C)C)C(=O)N[C@@H](CO)C(=O)N[C@@H](C)C(=O)N[C@H](C(=O)N[C@@H](C)C(=O)N[C@H](C(=O)N[C@@H](CC(=O)O)C(=O)N[C@@H](CC(C)C)C(=O)N[C@@H](CCCNC(=N)N)C(=O)N[C@@H](CCCCN)C(=O)N[C@@H](CC(=O)O)C(=O)N[C@@H](CCCCN)C(=O)N[C@@H](C)C(=O)N[C@@H](CCCCN)C(=O)N[C@@H](COP(=O)(O)O)C(=O)N[C@@H](CSC/C=C(\C)CC/C=C(\C)CCC=C(C)C)C(=O)OC)[C@@H](C)O)C(C)C	14-3-3 protein zeta/delta (YWHAZ, Homo sapiens, UniProt P63104)	binding, stopped-flow fluorescence polarization	–	–	0.37 µM
CC[C@H](C)[C@H](NC(=O)[C@@H](NC(=O)[C@H](Cc1c[nH]c2ccccc12)NC(=O)[C@H](CCC(=O)O)NC(=O)[C@H](C)NC(=S)Nc1ccc2c(c1)C(=O)OC21c2ccc(O)cc2Oc2cc(O)ccc21)C(C)C)C(=O)N[C@H](C(=O)N[C@H](C(=O)N1CCC[C@H]1C(=O)N[C@@H](Cc1ccccc1)C(=O)N[C@@H](CC(C)C)C(=O)N[C@H](C(=O)N[C@@H](CC(N)=O)C(=O)N[C@@H](CC(C)C)C(=O)O)[C@@H](C)O)[C@@H](C)CC)C(C)C	Rgg transcriptional regulator (Streptococcus pneumoniae, UniProt A0A0E7KI02)	binder, fluorescence polarization	–	20 min, pH 7.4, 20 °C, fluorescein-labelled peptide	8.1 ± 0.9 µM
CC[C@H](C)[C@H](NC(=O)[C@@H]1CCCN1C(=O)[C@@H]1CCCN1C(=O)[C@@H]1CCCN1C(=O)[C@@H](NC(=O)[C@H](CC(N)=O)NC(=O)[C@H](Cc1ccccc1)NC(=O)[C@H](C)N)[C@@H](C)CC)C(=O)N[C@@H](Cc1ccc(O)cc1)C(=O)N[C@H](C(=O)N[C@@H](CO)C(=O)N[C@@H](CCCNC(=N)N)C(=O)N[C@@H](C)C(=O)NCC(=O)NCC(=O)NCC(=O)NCC(=O)NCC(=O)N[C@H](C(=O)N[C@H](C(=O)N[C@@H](CC(C)C)C(=O)N1CCC[C@H]1C(=O)N1CCC[C@H]1C(=O)N1CCC[C@H]1C(=O)N1CCC[C@H]1C(=O)N[C@@H](Cc1ccc(O)cc1)C(=O)N[C@@H](CCCNC(=N)N)C(=O)N[C@@H](Cc1c[nH]cn1)C(=O)N[C@@H](CCCNC(=N)N)C(=O)N[C@@H](CC(N)=O)C(=O)O)C(C)C)[C@@H](C)O)[C@@H](C)O	WW domain-containing oxidoreductase, WW1-WW2 tandem domains (WWOX, Homo sapiens, UniProt Q9NZC7)	ITC	tandem WW1-WW2 domain	pH 7.8, 20 °C, some values lower limits only	8 ± 1.3 µM
C=CCOC(=O)NCCC[C@@H](NC(=O)[C@H](CCCNC(=N)N)NC(=O)[C@H](C)NC(=O)[C@H](CCCNC(=N)N)NC(=O)CNC(=O)[C@H](CCCNC(=N)N)NC(=O)[C@@H](NC(=O)[C@@H](NC(=O)CNC(=O)[C@H](CC(C)C)NC(=O)[C@@H]1CCCN1C(=O)[C@H](CC(=O)O)NC(=O)[C@H](CO)NC(=O)[C@H](C)NC(=O)c1cc(-c2ccccc2)nc2ccccc12)C(C)C)C(C)C)C(N)=O	Klotho (Homo sapiens, UniProt Q9UEF7)	binding, BLI competition	–	–	0.0012 ± 0.0004 µM
CN(C)CCCSC(=S)N1CCN(C(=O)/C=C/c2coc3ccccc3c2=O)CC1	Nucleoprotein (N, Tomato spotted wilt virus, UniProt P25999, R94A/Y184A)	binding, biolayer interferometry	–	mutant nucleocapsid protein	> 400 µM
CC(=O)N[C@@H](Cc1c[nH]c2ccccc12)C(=O)N[C@@H](C)C(=O)N1CCC[C@H]1C(=O)N1CCC[C@H]1C(=O)N[C@@H](CC(C)C)C(=O)N[C@@H](Cc1c[nH]cn1)C(=O)N[C@@H](CO)C(=O)N[C@H](C(=O)N[C@@H](C)C(N)=O)[C@@H](C)OP(=O)(O)O	Serine/threonine-protein kinase PLK1, polo-box (PLK1, Homo sapiens, UniProt P53350)	binding, MST	–	–	0.0296 µM
CC(=O)NC1C(O)OC(CO)C(OC2OC(CO)C(OC3OC(CO)C(O)C(O)C3O)C(O)C2O)C1O (stereo not drawn)	sly, domain 4 (Streptococcus suis, UniProt Q55996)	binding	–	–	0.342 µM
CC[C@H](C)[C@H](NC(=O)[C@H](Cc1ccc(O)cc1)NC(=O)[C@@H]1CCCN1C(=O)[C@H](CCCCN)NC(=O)[C@H](CCCCN)NC(=O)CCNC(=O)CCNC(=O)[C@H](CCC(=O)NCCC(=O)NCCC(=O)N[C@@H](Cc1ccc(OCC(=O)N[C@@H](Cc2ccccc2)C(=O)NCCCC[C@H](NC(=O)N[C@@H](CCC(=O)O)C(=O)O)C(=O)O)cc1)C(=O)O)NC(=O)CCNC(=O)CCNC(=O)CN1CCN(CC(=O)O)CCN(CC(=O)O)CCN(CC(=O)O)CC1)C(=O)N[C@@H](CC(C)C)C(=O)O [gallium-68 labelled]	Neurotensin receptor type 1 (NTSR1, Homo sapiens, UniProt P30989)	saturation binding	HT-29	2 h, 4 °C	0.246 µM
CN(C)C(=O)C(NC(=O)c1ccccc1-c1ccc(C(F)(F)F)cc1)c1cccc(C(F)(F)F)c1 (stereo not drawn)	NKG2-D type II integral membrane protein (KLRK1, Homo sapiens, UniProt P26718)	binding, surface plasmon resonance	–	25 °C, 1:1 binding model	3.9 µM
CC(C)[C@@H]1NC(=O)[C@H](CC(N)=O)NC(=O)C2(CCCCC2)NC(=O)[C@H](Cc2ccc(OP(=O)(O)O)cc2)NC(=O)[C@H](CCCCN)NC1=O	Growth factor receptor-bound protein 2, SH2 (GRB2, Homo sapiens, UniProt P62993)	binding	–	–	7.55 µM
CSCC[C@H](NC(C)=O)C(=O)N[C@H](C(=O)N[C@@H](Cc1ccccc1)C(=O)N[C@@H](CC(C)C)C(=O)N[C@@H](CC(=O)O)C(=O)N[C@H](C(=O)N[C@H]1CSCc2cccc(c2)CSC[C@@H](C(=O)N[C@@H](Cc2ccc(O)cc2)C(=O)N[C@H](C(=O)N[C@@H](CO)C(=O)N[C@@H](Cc2ccccc2)C(=O)N[C@@H](CCSC)C(=O)NCC(=O)N[C@@H](CO)C(=O)NCC(=O)N[C@@H](CO)C(=O)NCC(=O)N[C@@H](CO)C(=O)N[C@@H](CC(=O)O)C(=O)N[C@@H](Cc2ccc(O)cc2)C(=O)N[C@@H](CCCCN)C(=O)N[C@@H](CC(=O)O)C(=O)N[C@@H](CC(=O)O)C(=O)N[C@@H](CC(=O)O)C(=O)N[C@@H](CC(=O)O)C(=O)N[C@@H](CCCCN)C(N)=O)C(C)C)NC(=O)[C@H](CCCNC(=N)N)NC(=O)[C@H]([C@@H](C)O)NC1=O)[C@@H](C)O)[C@@H](C)O	Fibroblast growth factor receptor 4 (FGFR4, Homo sapiens, UniProt P22455)	binding, BLI	–	–	> 10 µM
CC[C@H](C)[C@H](NC(=O)[C@H](Cc1c[nH]cn1)NC(=O)[C@H](CCCCNC(=O)[C@@H](NC(=O)[C@H](CCCCN)NC(=O)CSC[C@H](NC(=O)[C@H](Cc1ccccc1)NC(=O)[C@H](CCCCNC(=O)[C@H](CC(C)C)NC(=O)[C@@H]1CCCN1C(=O)[C@H](CCCCN)NC(=O)CCS[C@@H]1O[C@H](CO)[C@H](O)[C@H](O)[C@H]1O)NC(=O)[C@H](CC(C)C)NC(=O)[C@@H]1CCCN1C(=O)[C@H](CCCCN)NC(=O)C[C@@H]1O[C@@H](C)[C@@H](O)[C@@H](O)[C@@H]1O)C(N)=O)[C@@H](C)CC)NC(=O)[C@@H](NC(=O)[C@H](CCCCN)NC(=O)CSC[C@H](NC(=O)[C@H](Cc1ccccc1)NC(=O)[C@H](CCCCNC(=O)[C@H](CC(C)C)NC(=O)[C@@H]1CCCN1C(=O)[C@H](CCCCN)NC(=O)CCS[C@@H]1O[C@H](CO)[C@H](O)[C@H](O)[C@H]1O)NC(=O)[C@H](CC(C)C)NC(=O)[C@@H]1CCCN1C(=O)[C@H](CCCCN)NC(=O)C[C@@H]1O[C@@H](C)[C@@H](O)[C@@H](O)[C@@H]1O)C(N)=O)[C@@H](C)CC)C(N)=O	PA-I galactophilic lectin (lecA, Pseudomonas aeruginosa, UniProt Q05097)	binding, ITC	–	pH 7.5	0.255 µM
CCN(CCCC[C@H](NC(=O)[C@H](CC(C)C)NC(=O)[C@H](C)NC(=O)[C@H](Cc1ccc(CN)cc1)NC(=O)c1cccnc1)C(=O)N[C@@H](CO)C(N)=O)C(C)C	Chromobox protein homolog 5, chromodomain (Homo sapiens, UniProt P45973)	isothermal titration calorimetry	–	25 °C	3.91 µM
Nc1ncnc2c1ncn2C1OC(CSCCCCNCc2cccc(-c3ccc(Cl)cc3)c2)C(O)C1O (stereo not drawn)	DNA adenine methyltransferase CamA (Clostridioides difficile, UniProt Q183J3)	binding, isothermal titration calorimetry	–	25 °C, 10% DMSO, reverse titration	6 µM
CCCCCCCC(=O)N[C@@H](CCCCNS(=O)(=O)c1cccc2c(N(C)C)cccc12)C(=O)N[C@H](C(=O)N[C@@H](CCN)C(=O)N[C@H]1CCNC(=O)[C@H]([C@@H](C)O)NC(=O)[C@H](CCN)NC(=O)[C@H](CCN)NC(=O)[C@H](CC(C)C)NC(=O)[C@@H](Cc2ccccc2)NC(=O)[C@H](CCN)NC1=O)[C@@H](C)O	lipopolysaccharide	binding, fluorescence titration	Salmonella enterica	pH 7.0	0.6 ± 0.1 µM
CC(C)C[C@H](NC(=O)[C@H](CCCNC(=N)N)NC(=O)[C@H](CCC(=O)O)NC(=O)[C@H](CCCCN)NC(=O)[C@H](CCCNC(=N)N)NC(=O)[C@H](CCCCN)NC(=O)[C@]1(C)CCCC=CCCC[C@](C)(NC(=O)[C@H](CC(C)C)NC(=O)[C@H](CO)NC(=O)[C@H](C)NC(=O)[C@H](CCCCN)NC(=O)[C@H](CCCNC(=N)N)NC(=O)[C@H](C)NC(=O)[C@H](CCC(N)=O)NC(=O)[C@@H]2CCCN2C(=O)[C@@H](NC(=O)[C@H](CO)NC(=O)c2ccc3c(c2)C(=O)OC32c3ccc(N(C)C)cc3Oc3cc(N(C)C)ccc32)C(C)C)C(=O)N[C@@H](CCCNC(=N)N)C(=O)N[C@@H](Cc2ccccc2)C(=O)N[C@@H](CC(C)C)C(=O)N1)C(=O)O	Transcription factor MYC3 (MYC3, Arabidopsis thaliana, UniProt Q9FIP9)	binding, fluorescence anisotropy	–	pH 8.0, apparent Kd, with: 100 nM TMR-labelled JAZ peptide	0.88 ± 0.2 µM
CC(C)=CCC/C(C)=C/CC/C(C)=C/C(=O)O	Juvenile hormone acid O-methyltransferase (JHAMT, Bombyx mori, UniProt Q767F1, Q14A)	binding, fluorescence binding	–	pH 8.0, 25 °C	0.27 ± 0.05 µM
N=C(N)NCCC[C@H](NC(=O)[C@H](Cc1ccccc1)NC(=O)[C@@H]1CCCN1C(=O)[C@H](CO)NC(=O)[C@H](Cc1ccccc1)NC(=O)CNC(=O)[C@@H]1CCCN1C(=O)[C@@H]1CCCN1C(=O)[C@@H](N)CCCNC(=N)N)C(=O)N[C@@H](CCCCNS(=O)(=O)c1ccc(C2=c3cc4c5c(c3Oc3c2cc2c6c3CCCN6CCC2)CCC[N+]=5CCC4)c(S(=O)(=O)[O-])c1)C(=O)O	Oligopeptide-binding protein OppA (oppA, Lactococcus lactis subsp. lactis, UniProt Q07741)	binding, fluorescence anisotropy	–	pH 8, 30 °C, with: dye-labelled peptide	22 ± 1 µM

Repeated from above:
Structure (SMILES)	target	assay	test system	conditions	Kd
CC(C)[C@@H]1NC(=O)[C@H](CC(N)=O)NC(=O)C2(CCCCC2)NC(=O)[C@H](Cc2ccc(OP(=O)(O)O)cc2)NC(=O)[C@H](CCCCN)NC1=O	Growth factor receptor-bound protein 2, SH2 (GRB2, Homo sapiens, UniProt P62993)	binding	–	–	7.55 µM
C=CCOC(=O)NCCC[C@@H](NC(=O)[C@H](CCCNC(=N)N)NC(=O)[C@H](C)NC(=O)[C@H](CCCNC(=N)N)NC(=O)CNC(=O)[C@H](CCCNC(=N)N)NC(=O)[C@@H](NC(=O)[C@@H](NC(=O)CNC(=O)[C@H](CC(C)C)NC(=O)[C@@H]1CCCN1C(=O)[C@H](CC(=O)O)NC(=O)[C@H](CO)NC(=O)[C@H](C)NC(=O)c1cc(-c2ccccc2)nc2ccccc12)C(C)C)C(C)C)C(N)=O	Klotho (Homo sapiens, UniProt Q9UEF7)	binding, BLI competition	–	–	0.0012 ± 0.0004 µM
CC(C)C[C@H](NC(=O)[C@H](CCCNC(=N)N)NC(=O)[C@H](CCC(=O)O)NC(=O)[C@H](CCCCN)NC(=O)[C@H](CCCNC(=N)N)NC(=O)[C@H](CCCCN)NC(=O)[C@]1(C)CCCC=CCCC[C@](C)(NC(=O)[C@H](CC(C)C)NC(=O)[C@H](CO)NC(=O)[C@H](C)NC(=O)[C@H](CCCCN)NC(=O)[C@H](CCCNC(=N)N)NC(=O)[C@H](C)NC(=O)[C@H](CCC(N)=O)NC(=O)[C@@H]2CCCN2C(=O)[C@@H](NC(=O)[C@H](CO)NC(=O)c2ccc3c(c2)C(=O)OC32c3ccc(N(C)C)cc3Oc3cc(N(C)C)ccc32)C(C)C)C(=O)N[C@@H](CCCNC(=N)N)C(=O)N[C@@H](Cc2ccccc2)C(=O)N[C@@H](CC(C)C)C(=O)N1)C(=O)O	Transcription factor MYC3 (MYC3, Arabidopsis thaliana, UniProt Q9FIP9)	binding, fluorescence anisotropy	–	pH 8.0, apparent Kd, with: 100 nM TMR-labelled JAZ peptide	0.88 ± 0.2 µM
